Measured values pooled from the literature.
Parts stem from different laboratories: compare values within a part only. Positions count from the first letter of the parent shown.

Set 1 — method: RNA Bind-n-Seq; form: RNA; sample: in vitro; tested at: 365 nM; relative to: no-protein control; direction: higher = stronger binding; measurement: RBNS enrichment (R)
Target: RNA binding protein fox-1 homolog 2, RRM domain, GST-SBP tag (RBFOX2, Homo sapiens, UniProt O43251-10, residues 100-194)
Notes: natural RNA segment, single round, ends assumed
All sequences stand within: GGGAGUUCUACAGUCCGACGAUC … UGGAAUUCUCGGGUGCCAA
Residues (chain): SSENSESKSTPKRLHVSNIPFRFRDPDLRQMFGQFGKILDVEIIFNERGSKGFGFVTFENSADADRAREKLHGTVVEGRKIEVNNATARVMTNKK
UGUGGCCGGCACUGGGCAGCCCCUUGGACUGAGGCAGUUUUGGUGGAUGGGGGACCUCCACUGGUGACAGAGAAGACACCAGGGUUUGGGGGAUGCCUGGGACUUUCCUC: 0.665
CCAGUAAAAUGUCUAUGACUCUUACAUGUUGUCAUUCUUCUUCUUUUGGCUUUGCUGCUCUGAUGAAGUUGCUCAGAUGAGCUGUGGCUGCCAGAGAACAAGGUGUAUGU: 0.273
UAAUUGAAUGCAUACCUAAUUGUAAAAUUUUUUUAUUUACAACAUUGGAAAUUCAGAAGUUAAUGUUUUUUUGUAAGCACAAAAGAAGUAUUAUAGAAAUUUAUCCUAGC: 0.54
GAGACCCUGGCUGCAGCGGAAUUUUUUGUUUUUAGCAGGCUGUCCUGCCUGCUAUGAGGGGUGGAUACUGUUCCAGAUCUUUGGGGGAAUUGUUACCUCCUGUUGUUUUG: 0.465
UAUAUUUCCAAGUUAGCAGUUAUGCAGCUCAAAAGCAGUAUUUGGCUUUAUAGUAAAUUUGUUUCUAAAUCUAAUAACUUUAAAAUAGAAACUUAAGUAAAUAUGGCUUA: 0.361
CUGGCUUGGACUUUAGCGGGGAGGGAAGCCAGGGGAUUUUGAAGGGUGGACAUUAGGGUAGGGUGAGGUCAACCUAAUACUGACUUGUCAGUAUCUCCAGCUCUGAUUAC: 0.734
ACGGUGACGCCUGCGGGACCAUCUGGGGCACCUGCUUCCACCCGUCUCUCUGCCCACUCGGGUCUGCAGACCUGGUUCCCACUGAGGCCCUUUGCAGGAUGGAACUACGG: 0.417
AAAUAACUAUCUCACAUAGCGCUUCUAAUUUGCCGCGUGUGAGGGGAGCAUUCUGGGAUGGUUUUGUUUCUCCCUUUUUGUGCCGAAUGGAGAAUAAAAUACUUCAAACG: 0.308

Set 2 — method: protein-binding microarray; form: double-stranded DNA, one strand shown; sample: in vitro; tested at: not given; direction: higher = stronger binding; measurement: E-score
Target: Myc proto-oncogene protein, bHLH-zipper, MAX partner unstated (MYC, Homo sapiens, UniProt P01106, residues 368-449)
Chain of UniProt P01106 (368-449, looked up): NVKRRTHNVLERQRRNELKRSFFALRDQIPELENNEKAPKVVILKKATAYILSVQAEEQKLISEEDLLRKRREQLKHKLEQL
Notes: k-mer, scored over probes, only values ≥0.25
ATCACGTG: 0.477
AGTCATGC: 0.319
AAGCATGA: 0.258
GCGATCAC: 0.29
CGCGCATA: 0.277
ACAACCCC: 0.264
AACCACGG: 0.251
CACGTCTC: 0.267

Set 3 — method: DNA-protein interaction ELISA; form: double-stranded DNA, one strand shown; sample: in vitro, bacterial lysate; tested at: not given; notes: whole dsDNA probe, crude lysate protein; relative to: highest signal in screen; direction: higher = stronger binding; measurement: relative absorbance
Target: Probable WRKY transcription factor 50, DNA-binding domain (WRKY50, Arabidopsis thaliana, UniProt Q8VWQ5, residues 99-173)
Construct (chain): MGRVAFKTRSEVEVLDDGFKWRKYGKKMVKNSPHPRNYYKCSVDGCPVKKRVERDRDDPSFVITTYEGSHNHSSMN
AAAAAATTTCTATTTCATCTTTGCCCAAAA: 48.2 % of maximum
AAAAAATCAACCATTATGGTATTACTAAAA: 28.5 % of maximum
AAAAAAACGATACGGTATCTAGAAAA: 18.7 % of maximum
AAAAAATTCAGAGCTTCGAGGTTCCGAAAA: 14.6 % of maximum
AAAAAAAAAAAAAAAAAAAAAAAAAAAAAA: 12.7 % of maximum
AAAAAATGCCATTGTACCTGTGTTCGAAAA: 10.6 % of maximum
AAAAAAGTCCCGCGCTAAGCTTTAAAAAAA: 55.4 % of maximum
AAAAAAATATTTGAGCTAGGTTATCAAAAA: 21.8 % of maximum

Single results of other studies — starting sequence: viral docking peptide; KKVKRRLFETREL
KKVARRLFETREL [K4A]
normalised enrichment score (CCNE1, cyclin fold, Cln2 fusion (human); yeast growth competition, sequencing; yeast; strong parent motif; relative to: not given, higher = stronger binding): 3.66
